Measured values from different studies.
Parts stem from different laboratories: compare values within a part only. Several values in a cell are separate wells, animals, samples, runs or records. Numbers after ± are the reported error.

Block 1 — host: mouse, S. aureus infection; route: subcutaneous
SMILES: CCCCC[C@@H](O)CC(=O)N[C@H]1COC(=O)[C@H](CO)NC(=O)[C@H](Cc2ccccc2)NC(=O)[C@@H](Cc2c[nH]c3ccccc23)NC(=O)[C@@H](C(C)O)NC(=O)[C@H](CC(N)=O)NC(=O)[C@@H](C(C)C)NC(=O)[C@H](CC(C)C)NC(=O)[C@@H](Cc2ccc(O)cc2)N(C)C(=O)CNC(=O)[C@H](CO)NC(=O)[C@@H](CC(N)=O)NC1=O (stereo partly drawn)
dose | time | survival [%]
60 mg/kg | day 1 | 100
30 mg/kg | day 1 | 100
60 mg/kg | day 5 | 100
30 mg/kg | day 5 | 100
10 mg/kg | day 0 | 100

Block 2 — technique: manual patch clamp
SMILES: Cn1cc(-c2cccc(CN3CCC4(CC3)COc3c4ccc4c3CN([C@H]3CCC(=O)NC3=O)C4=O)c2)cn1
Target: Voltage-gated inwardly rectifying potassium channel KCNH2 (KCNH2, Homo sapiens, UniProt Q12809)
UniProt Q12809, sequence (whole entry, looked up): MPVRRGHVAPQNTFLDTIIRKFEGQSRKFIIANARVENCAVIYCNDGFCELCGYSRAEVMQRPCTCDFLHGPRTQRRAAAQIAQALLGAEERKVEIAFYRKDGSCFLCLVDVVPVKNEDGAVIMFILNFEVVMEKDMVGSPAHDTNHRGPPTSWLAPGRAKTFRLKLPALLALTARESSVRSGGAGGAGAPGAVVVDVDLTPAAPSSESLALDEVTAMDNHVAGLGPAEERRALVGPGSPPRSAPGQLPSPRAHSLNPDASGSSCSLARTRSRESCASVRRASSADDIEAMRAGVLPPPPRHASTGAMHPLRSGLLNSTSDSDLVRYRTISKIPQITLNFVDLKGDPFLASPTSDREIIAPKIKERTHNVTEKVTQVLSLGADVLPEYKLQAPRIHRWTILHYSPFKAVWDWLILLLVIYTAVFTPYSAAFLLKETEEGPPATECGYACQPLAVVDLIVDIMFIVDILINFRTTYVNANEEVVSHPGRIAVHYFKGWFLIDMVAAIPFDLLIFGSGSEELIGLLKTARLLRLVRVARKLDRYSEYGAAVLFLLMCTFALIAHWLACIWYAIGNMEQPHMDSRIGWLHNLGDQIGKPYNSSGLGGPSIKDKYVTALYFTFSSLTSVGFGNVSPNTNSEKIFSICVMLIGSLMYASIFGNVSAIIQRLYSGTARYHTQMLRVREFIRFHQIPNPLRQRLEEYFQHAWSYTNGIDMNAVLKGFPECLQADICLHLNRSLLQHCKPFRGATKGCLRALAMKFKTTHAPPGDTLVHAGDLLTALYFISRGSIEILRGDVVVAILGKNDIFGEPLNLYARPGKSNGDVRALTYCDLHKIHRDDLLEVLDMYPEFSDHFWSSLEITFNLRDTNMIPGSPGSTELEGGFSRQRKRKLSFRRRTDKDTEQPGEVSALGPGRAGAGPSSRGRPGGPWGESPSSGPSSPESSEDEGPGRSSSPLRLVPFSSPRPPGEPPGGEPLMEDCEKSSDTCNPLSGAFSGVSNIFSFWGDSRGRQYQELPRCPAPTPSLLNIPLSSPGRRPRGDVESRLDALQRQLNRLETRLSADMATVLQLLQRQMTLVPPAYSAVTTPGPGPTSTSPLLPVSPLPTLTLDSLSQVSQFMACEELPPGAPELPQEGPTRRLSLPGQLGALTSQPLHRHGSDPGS
read-out | mode | concentration | notes | inhibition
hERG current |  | 1.28 µM |  | 3.19%
potassium current | inhibitor | 88.62 µM | mean measured concentration | 69.2%
hERG current |  | 1.00 µM |  | 6% and 0.38%
hERG current |  | 30.00 µM |  | 36.8% and 50%
hERG current |  | 3.00 µM |  | 7.66% and 8.22%
hERG current |  | 10.00 µM |  | 16.5% and 21.2%
potassium current | inhibitor | 9.95 µM | 9.95 | 16.5% and 21.2%
potassium current | inhibitor | 32.25 µM | 32.25 | 36.8% and 50%
potassium current | inhibitor | 100 µM | nominal concentration, cloudy solution | 69.2%
hERG current |  | 3.40 µM |  | 7.94%

Block 3 — mode: competitor; technique: radioligand binding
SMILES: N=C(N)NCCCCCCN1CCC23c4c5ccc(O)c4OC2c2nc4ccccc4cc2CC3(O)C1C5 (stereo not drawn)
Target: Mu-type opioid receptor (OPRM1, Homo sapiens, UniProt P35372)
UniProt P35372, sequence (whole entry, looked up): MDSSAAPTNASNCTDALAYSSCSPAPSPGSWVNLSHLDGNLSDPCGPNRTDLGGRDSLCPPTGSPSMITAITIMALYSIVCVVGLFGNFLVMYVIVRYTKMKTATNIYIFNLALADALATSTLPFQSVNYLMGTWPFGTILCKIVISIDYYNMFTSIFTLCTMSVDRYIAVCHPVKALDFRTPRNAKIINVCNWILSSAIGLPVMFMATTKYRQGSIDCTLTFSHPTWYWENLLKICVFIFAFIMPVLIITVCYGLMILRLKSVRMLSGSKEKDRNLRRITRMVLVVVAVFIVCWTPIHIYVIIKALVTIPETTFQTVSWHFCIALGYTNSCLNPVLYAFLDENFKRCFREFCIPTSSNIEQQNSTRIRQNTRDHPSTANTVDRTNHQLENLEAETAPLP
concentration | specific binding
100 nM | 52.4% and 93.1% and 75.4%
1 µM | 12.6% and 19.3% and 25.5%
10 pM | 121% and 94.4% and 132%
1 pM | 102% and 125% and 124%

Further values, each from its own experiment — organism: Plasmodium falciparum; time: 72 h
SMILES | read-out | technique | strain | concentration | quantity | value
O=[N+]([O-])c1ccc(C2=NOC3(NC(c4ccccc4)=NO3)N2c2ccccc2)cc1 (stereo not drawn) |  | SYBR Gold | SB1-A6, atovaquone-resistant | concentration not given | antiplasmodial activity | inactive
FC(F)(F)c1ccc(C2=NOC3(NC(c4ccccc4)=NO3)N2c2ccccc2)cc1 (stereo not drawn) | parasite growth |  | W2mef multidrug-resistant |  | IC50 | 300 ± 90 nM

Excerpt of the above (block 1):
dose | time | survival [%]
30 mg/kg | day 1 | 100
30 mg/kg | day 5 | 100
